Measured values pooled from the literature.
Compare with care: the assays were run in different laboratories. ± marks the error that the study gave.
B1: Kcnh1 7-136 (Mus musculus, UniProt Q60603); sequence looked up; chain RRGLVAPQNTFLENIVRRSNDTNFVLGNAQIVDWPIVYSNDGFCKLSGYHRAEVMQKSSACSFMYGELTDKDTVEKVRQTFENYEMNSFEILMYKKNRTPVWFFVKIAPIRNEQDKVVLFLCTFSDITAF
B2: SGIP1 69-156 S95C (mouse, UniProt Q8VD37); Alexa Fluor 488 label; chain AEIDWERYNSPELDEEGYSIRPEEPGCTKGKHFYSSSESEEEEESHKKFNIKIKPLQSKDVLKNAATVDELKASIGNIALSPSPVRKS
B3: NFE2L2 99-160 (Homo sapiens, UniProt Q16236); fluorescein label; chain GSANYSQVAHIPKSDALYFDDCMQLLAQTFPFVDDNEVSSATFQSLVPDIPGHIESPVFIATN
B4: CFH domains 1108-1231 L1189F (Homo sapiens, UniProt P08603); sequence looked up; chain KCGPPPPIDNGDITSFPLSVYAPASSVEYQCQNLYQLEGNKRITCRNGQWSEPPKCLHPCVISREIMENYNIALRWTAKQKFYSRTGESVEFVCKRGYRLSSRSHTLRTTCWDGKLEYPTCAKR
B5: BBC3 (Homo sapiens, UniProt Q9BXH1-2); chain MKFGMGSAQACPCQVPRAASTTWVPCQICGPQPSLSLAEQHLESPVPSAPGALAGGPTQAAPGVRGEEEQWAREIGAQLRRMADDLNAQYERRRQEEQQRHRPSPWRVLYNLIMGLLPLPRGHRAPEMEPN
B6: Cacna1c 1647-1777 (Mus musculus, UniProt Q01815); sequence looked up; chain NALSLQAGLRTLHDIGPEIRRAISGDLTAEEELDKAMKEAVSAASEDDIFRRAGGLFGNHVTYYQSDSRGNFPQTFATQRPLHINKTGNNQADTESPSHEKLVDSTFTPSSYSSTGSNANINNANNTALGR
B7: LLGL2 13-978 (Homo sapiens, UniProt Q6P1M3); phosphorylated serines; chain RERLKRDLFQFNKTVEHGFPHQPSALGYSPSLRILAIGTRSGAIKLYGAPGVEFMGLHQENNAVTQIHLLPGQCQLVTLLDDNSLHLWSLKVKGGASELQEDESFTLRGPPGAAPSATQITVVLPHSSCELLYLGTESGNVFVVQLPAFRALEDRTISSDAVLQRLPEEARHRRVFEMVEALQEHPRDPNQILIGYSRGLVVIWDLQGSRVLYHFLSSQQLENIWWQRDGRLLVSCHSDGSYCQWPVSSEAQQPEPLRSLVPYGPFPCKAITRILWLTTRQGLPFTIFQGGMPRASYGDRHCISVIHDGQQTAFDFTSRVIGFTVLTEADPAATFDDPYALVVLAEEELVVIDLQTAGWPPVQLPYLASLHCSAITCSHHVSNIPLKLWERIIAAGSRQNAHFSTMEWPIDGGTSLTPAPPQRDLLLTGHEDGTVRFWDASGVCLRLLYKLSTVRVFLTDTDPNENFSAQGEDEWPPLRKVGSFDPYSDDPRLGIQKIFLCKYSGYLAVAGTAGQVLVLELNDEAAEQAVEQVEADLLQDQEGYRWKGHERLAARSGPVRFEPGFQPFVLVQCQPPAVVTSLALHSEWRLVAFGTSHGFGLFDHQQRRQVFVKCTLHPSDQLALEGPLSRVKSLKKSLRQSFRRMRRSRVSSRKRHPAGPPGEAQEGSAKAERPGLQNMELAPVQRKIEARSAEDSFTGFVRTLYFADTYLKDSSRHCPSLWAGTNGGTIYAFSLRVPPAERRMDEPVRAEQAKEIQLMHRAPVVGILVLDGHSVPLPEPLEVAHDLSKSPDMQGSHQLLVVSEEQFKVFTLPKVSAKLKLKLTALEGSRVRRVSVAHFGSRRAEDYGEHHLAVLTNLGDIQVVSLPLLKPQVRYSCIRREDVSGIASCVFTKYGQGFYLISPSEFERFSLSTKWLVEPRCLVDSAETKNHRPGNGAGPKKAPSRARNSGTQSDGEEKQPGLVMER
Chain of UniProt Q09472 (whole entry, looked up): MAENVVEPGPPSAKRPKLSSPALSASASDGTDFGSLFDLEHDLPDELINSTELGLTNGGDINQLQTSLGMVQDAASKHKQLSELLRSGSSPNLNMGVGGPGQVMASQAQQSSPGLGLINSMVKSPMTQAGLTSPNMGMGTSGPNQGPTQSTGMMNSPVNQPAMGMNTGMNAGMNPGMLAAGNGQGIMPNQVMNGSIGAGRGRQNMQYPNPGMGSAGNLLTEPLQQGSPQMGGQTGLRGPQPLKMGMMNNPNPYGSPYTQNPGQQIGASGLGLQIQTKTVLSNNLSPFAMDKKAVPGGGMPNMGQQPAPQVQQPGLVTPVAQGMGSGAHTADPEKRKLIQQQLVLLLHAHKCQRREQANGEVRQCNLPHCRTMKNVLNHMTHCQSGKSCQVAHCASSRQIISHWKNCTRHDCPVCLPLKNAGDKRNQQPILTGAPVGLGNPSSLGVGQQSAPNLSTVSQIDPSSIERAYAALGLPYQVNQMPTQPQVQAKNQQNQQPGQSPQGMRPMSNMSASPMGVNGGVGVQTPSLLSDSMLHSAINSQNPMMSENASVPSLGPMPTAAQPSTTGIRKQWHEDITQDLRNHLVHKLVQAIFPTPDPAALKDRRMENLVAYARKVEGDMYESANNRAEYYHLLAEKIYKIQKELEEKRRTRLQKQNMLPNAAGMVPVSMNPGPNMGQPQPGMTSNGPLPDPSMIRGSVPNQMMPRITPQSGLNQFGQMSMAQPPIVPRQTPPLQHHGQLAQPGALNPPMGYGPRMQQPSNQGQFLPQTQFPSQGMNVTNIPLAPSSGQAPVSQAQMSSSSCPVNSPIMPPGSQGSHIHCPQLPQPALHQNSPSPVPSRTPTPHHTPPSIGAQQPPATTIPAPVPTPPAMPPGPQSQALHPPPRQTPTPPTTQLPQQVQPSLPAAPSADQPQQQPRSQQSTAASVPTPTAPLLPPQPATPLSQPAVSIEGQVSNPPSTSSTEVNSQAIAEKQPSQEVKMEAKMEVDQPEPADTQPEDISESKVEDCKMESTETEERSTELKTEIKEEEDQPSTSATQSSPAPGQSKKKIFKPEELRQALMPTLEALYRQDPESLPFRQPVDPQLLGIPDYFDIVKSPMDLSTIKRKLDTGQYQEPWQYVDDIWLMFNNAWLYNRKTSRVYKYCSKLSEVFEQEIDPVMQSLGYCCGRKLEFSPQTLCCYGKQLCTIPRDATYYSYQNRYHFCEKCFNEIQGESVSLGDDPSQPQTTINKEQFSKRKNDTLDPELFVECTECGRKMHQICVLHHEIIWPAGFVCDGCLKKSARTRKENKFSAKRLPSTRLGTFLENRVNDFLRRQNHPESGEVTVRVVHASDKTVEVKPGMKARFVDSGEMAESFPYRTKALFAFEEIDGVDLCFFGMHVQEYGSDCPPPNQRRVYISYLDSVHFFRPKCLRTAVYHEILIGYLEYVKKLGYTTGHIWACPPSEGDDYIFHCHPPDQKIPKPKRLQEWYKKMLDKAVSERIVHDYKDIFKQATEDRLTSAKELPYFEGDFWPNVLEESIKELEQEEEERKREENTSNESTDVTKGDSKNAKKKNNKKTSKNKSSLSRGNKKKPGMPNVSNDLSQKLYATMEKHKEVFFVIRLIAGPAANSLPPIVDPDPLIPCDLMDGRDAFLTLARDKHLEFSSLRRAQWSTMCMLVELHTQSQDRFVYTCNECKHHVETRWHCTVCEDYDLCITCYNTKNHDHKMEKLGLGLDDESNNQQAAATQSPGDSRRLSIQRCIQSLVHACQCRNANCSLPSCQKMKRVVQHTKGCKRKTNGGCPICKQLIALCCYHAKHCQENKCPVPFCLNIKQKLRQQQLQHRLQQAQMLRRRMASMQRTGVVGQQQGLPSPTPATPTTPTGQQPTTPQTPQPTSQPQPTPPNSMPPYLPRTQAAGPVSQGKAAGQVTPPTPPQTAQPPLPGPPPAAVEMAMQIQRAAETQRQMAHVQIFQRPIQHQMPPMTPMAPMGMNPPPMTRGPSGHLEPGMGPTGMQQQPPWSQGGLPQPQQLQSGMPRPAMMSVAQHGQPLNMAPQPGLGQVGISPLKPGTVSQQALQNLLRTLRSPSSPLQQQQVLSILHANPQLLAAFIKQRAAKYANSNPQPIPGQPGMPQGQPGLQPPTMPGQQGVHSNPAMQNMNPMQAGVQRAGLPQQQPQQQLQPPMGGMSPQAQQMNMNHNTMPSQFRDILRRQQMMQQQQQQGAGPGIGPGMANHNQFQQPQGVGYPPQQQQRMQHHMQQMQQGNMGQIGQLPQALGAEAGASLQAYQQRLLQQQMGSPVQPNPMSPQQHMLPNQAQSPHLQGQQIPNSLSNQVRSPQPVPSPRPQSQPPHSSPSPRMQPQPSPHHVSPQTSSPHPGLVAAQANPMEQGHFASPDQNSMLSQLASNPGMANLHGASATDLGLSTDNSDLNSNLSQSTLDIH
Chain of UniProt P26039 (whole entry, looked up): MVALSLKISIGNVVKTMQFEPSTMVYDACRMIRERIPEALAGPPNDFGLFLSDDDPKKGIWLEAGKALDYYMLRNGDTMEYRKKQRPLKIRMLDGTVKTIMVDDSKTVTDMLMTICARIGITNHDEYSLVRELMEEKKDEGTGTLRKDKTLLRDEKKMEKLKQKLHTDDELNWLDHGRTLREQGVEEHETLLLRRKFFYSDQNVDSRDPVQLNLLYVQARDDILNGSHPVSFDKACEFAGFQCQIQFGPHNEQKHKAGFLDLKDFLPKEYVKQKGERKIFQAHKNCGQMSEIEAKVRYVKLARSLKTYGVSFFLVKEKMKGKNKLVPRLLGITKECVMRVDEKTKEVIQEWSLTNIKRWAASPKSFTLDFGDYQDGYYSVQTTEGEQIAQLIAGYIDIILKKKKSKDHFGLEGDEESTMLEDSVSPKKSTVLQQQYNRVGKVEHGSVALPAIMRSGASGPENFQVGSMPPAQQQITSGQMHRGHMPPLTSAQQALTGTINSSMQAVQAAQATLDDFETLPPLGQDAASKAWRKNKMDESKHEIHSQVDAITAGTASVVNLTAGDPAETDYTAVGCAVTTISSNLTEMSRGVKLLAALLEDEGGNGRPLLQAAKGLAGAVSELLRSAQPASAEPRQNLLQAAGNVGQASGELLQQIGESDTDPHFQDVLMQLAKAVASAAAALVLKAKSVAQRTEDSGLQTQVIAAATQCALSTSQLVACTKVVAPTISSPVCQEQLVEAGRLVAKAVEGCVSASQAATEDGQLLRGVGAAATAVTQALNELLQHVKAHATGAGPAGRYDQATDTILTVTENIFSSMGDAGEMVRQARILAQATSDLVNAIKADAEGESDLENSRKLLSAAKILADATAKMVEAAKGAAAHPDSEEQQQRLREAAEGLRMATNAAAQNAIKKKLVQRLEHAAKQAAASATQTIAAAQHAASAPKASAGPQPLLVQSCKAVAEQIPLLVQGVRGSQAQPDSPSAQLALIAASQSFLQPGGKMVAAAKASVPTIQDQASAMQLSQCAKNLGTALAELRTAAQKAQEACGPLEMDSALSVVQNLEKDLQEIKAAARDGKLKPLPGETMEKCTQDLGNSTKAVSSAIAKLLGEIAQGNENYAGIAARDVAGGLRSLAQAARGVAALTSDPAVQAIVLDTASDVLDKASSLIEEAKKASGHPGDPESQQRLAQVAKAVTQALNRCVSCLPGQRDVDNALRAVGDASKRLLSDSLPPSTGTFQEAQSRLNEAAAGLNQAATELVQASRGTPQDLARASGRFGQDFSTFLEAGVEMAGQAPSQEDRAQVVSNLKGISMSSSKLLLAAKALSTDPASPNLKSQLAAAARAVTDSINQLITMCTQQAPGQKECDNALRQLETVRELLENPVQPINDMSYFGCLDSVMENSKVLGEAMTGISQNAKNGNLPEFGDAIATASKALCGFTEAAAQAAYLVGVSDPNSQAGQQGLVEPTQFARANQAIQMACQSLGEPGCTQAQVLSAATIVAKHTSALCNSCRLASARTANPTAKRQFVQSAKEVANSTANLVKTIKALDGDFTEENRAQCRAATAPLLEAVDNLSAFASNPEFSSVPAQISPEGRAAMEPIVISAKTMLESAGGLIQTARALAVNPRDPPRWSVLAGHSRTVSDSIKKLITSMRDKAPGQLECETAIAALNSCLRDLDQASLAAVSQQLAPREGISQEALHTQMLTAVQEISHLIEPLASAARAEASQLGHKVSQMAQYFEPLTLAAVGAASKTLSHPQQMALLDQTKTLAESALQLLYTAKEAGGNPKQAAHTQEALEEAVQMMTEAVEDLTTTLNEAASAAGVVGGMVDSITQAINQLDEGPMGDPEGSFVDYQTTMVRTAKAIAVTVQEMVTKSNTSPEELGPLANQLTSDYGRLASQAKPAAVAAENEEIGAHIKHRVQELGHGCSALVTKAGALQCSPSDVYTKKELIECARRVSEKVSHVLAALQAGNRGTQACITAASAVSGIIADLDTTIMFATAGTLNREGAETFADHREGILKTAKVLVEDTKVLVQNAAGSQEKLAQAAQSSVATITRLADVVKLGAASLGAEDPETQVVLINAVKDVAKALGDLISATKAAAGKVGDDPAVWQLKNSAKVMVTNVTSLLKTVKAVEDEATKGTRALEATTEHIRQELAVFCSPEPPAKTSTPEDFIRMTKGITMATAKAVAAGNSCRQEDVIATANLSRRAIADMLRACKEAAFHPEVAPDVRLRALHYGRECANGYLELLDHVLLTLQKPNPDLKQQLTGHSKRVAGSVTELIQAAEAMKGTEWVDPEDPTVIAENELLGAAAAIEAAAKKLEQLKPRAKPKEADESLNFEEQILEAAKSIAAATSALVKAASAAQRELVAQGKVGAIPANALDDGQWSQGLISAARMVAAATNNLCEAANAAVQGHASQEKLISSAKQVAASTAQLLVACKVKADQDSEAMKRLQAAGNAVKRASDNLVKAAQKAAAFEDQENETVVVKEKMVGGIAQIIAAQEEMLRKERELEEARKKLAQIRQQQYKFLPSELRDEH

Substance | tested on | assay | test system | conditions | scale | measurement | value
B1 (Kcnh1 7-136) | Kcnh1 552-708 (Mus musculus, UniProt Q60603) | SPR | – | 25 °C, two-state model, together with: chlorpromazine 10 µM | – | Kd | 1.8 µM
KLLMIIHDRREFAKFEKEKMNAKWDTQENPIYKSAVTTVVNPKYEGK (ITGB1 752-798 G778Q (Homo sapiens, UniProt P05556-1); sequence looked up) | Tln1 309-405 (Mus musculus, UniProt P26039) | NMR titration | – | – | – | Kd | 312 µM
B2 (SGIP1 69-156 S95C) | AP2A2/AP2B1/AP2M1/AP2S1 core, lacking appendage domains (Mus musculus) | MST | – | – | – | Kd | 0.54 µM
SCN2A fragment Y1919A (Homo sapiens) (sequence not shown) | CALM1 (Homo sapiens, UniProt P0DP23) | fluorescence titration | – | pH 7.4, 22 °C, together with: calcium | – | Kd | 0.135 µM
B3 (NFE2L2 99-160) | EP300 TAZ2 1723-1812 x (Homo sapiens, UniProt Q09472) | fluorescence titration | – | – | – | Kd | 12.8 ± 10.2 µM
GGWVEKETYY | human MAGI1-2/6 PDZ construct (MBP fusion) | automated holdup | peptide, crude extract | concentration not given, uncorrected, unit not given | relative to: biotin control resin, higher = stronger binding | binding intensity | 0.022
SPTBN2 actin-binding domain T62I (sequence not shown) | ACTA1 F-actin (Oryctolagus cuniculus, UniProt P68135) | co-sedimentation | – | – | – | Kd | 2.4 µM
PUX5 fragment (Arabidopsis thaliana) | CDC48A 1-463 (Arabidopsis thaliana, UniProt P54609) | ITC | – | 25 °C | – | Kd | 3.3 ± 0.5 µM
GSGAGIESNV | human MAGI1-3/6 PDZ construct (MBP fusion) | automated holdup | peptide, crude extract | concentration not given, corrected by standard peak, unit not given | relative to: biotin control resin, higher = stronger binding | binding intensity | 0.0507
B4 (CFH domains 1108-1231 L1189F) | C3 996-1303 (Homo sapiens, UniProt P01024) | SPR | – | – | – | Kd | 6.3 ± 0.7 µM
human retinal dehydrogenase 1 | – | co-immunoprecipitation | human RBC membrane | DSSO crosslinker, unit not given, together with: Band 3 peptide 1-56 bait | relative to: negative control | co-IP enrichment | 15
B5 (BBC3) | BCL2L1 fragment (Homo sapiens) | ITC | – | – | – | Kd | 0.001 µM
B6 (Cacna1c 1647-1777) | JPH2 1-446 (Homo sapiens, UniProt Q9BR39-1) | ITC | – | – | – | Kd | 5.64 µM
B7 (LLGL2 13-978) | PRKCI/PARD6B, activation loop phosphorylated | BLI | – | steady-state KD, together with: AMP-PNP | – | Kd | 0.0765 ± 0.0145 µM
TQLMPFGSL | HLA class I histocompatibility antigen, A alpha chain, allele A*24:02 (Homo sapiens, UniProt P04439) | conformational ELISA | peptide | concentration not given | relative to: positive control peptide, direction not given | binding score | 2.4%

Excerpt of the above:
Substance | tested on | assay | test system | conditions | scale | measurement | value
GSGAGIESNV | human MAGI1-3/6 PDZ construct (MBP fusion) | automated holdup | peptide, crude extract | concentration not given, corrected by standard peak, unit not given | relative to: biotin control resin, higher = stronger binding | binding intensity | 0.0507
B6 (Cacna1c 1647-1777) | JPH2 1-446 (Homo sapiens, UniProt Q9BR39-1) | ITC | – | – | – | Kd | 5.64 µM
